Results gathered from unrelated publications.
Numbered parts are unrelated; each lists some results of a single study. Substitutions count along the parent as printed.
Sequence of UniProt P47898 (whole entry, looked up): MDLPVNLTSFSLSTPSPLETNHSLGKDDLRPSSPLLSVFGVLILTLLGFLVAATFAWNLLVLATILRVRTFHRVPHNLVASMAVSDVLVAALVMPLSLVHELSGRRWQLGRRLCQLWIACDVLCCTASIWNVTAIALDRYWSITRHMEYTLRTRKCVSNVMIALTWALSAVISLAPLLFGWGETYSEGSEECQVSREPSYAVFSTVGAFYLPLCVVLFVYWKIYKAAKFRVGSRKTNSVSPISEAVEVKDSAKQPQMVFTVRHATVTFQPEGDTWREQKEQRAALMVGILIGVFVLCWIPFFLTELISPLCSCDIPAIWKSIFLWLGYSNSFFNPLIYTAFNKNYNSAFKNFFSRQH

Block 1 — technique: DHFR PCA, dose-response; matrix: yeast; setting: Hill fit, mean, not affinity; together with: (+)-ABA, dose series; direction: lower = more sensitive
Target: ABI1, truncated, D143A, DHFR fusion (Arabidopsis thaliana, UniProt P49597)
Starting sequence: PYL1, truncated, DHFR fusion (Arabidopsis thaliana, UniProt Q8VZS8); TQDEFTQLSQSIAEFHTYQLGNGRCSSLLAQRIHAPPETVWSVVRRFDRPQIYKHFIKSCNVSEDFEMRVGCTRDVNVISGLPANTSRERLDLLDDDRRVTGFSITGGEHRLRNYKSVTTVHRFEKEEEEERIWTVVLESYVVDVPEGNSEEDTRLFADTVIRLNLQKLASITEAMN
| Substitution | ABA EC50 [µM] |
| --- | --- |
| R123C | 3.72 |
| G148P | 34 |
| H55E | 3.06 |
| S63E | 2.19 |
| Y18N | 12 |
| T106R | 29.9 |
| E14F | 32.8 |
| F15A | 121 |

Block 2 — technique: protein-binding microarray; molecule type: hairpin DNA; matrix: in vitro; concentration: not given; baseline: not given; direction: higher = stronger binding
Target: Microphthalmia-associated transcription factor, full length (MITF, Homo sapiens, UniProt O75030-10, residues 1-413)
Setting: whole hairpin DNA, median over replicate spots
| Strand | median fluorescence |
| --- | --- |
| GAGGCCTAACACGTGCTGCCTCCTGGCAGCACGTGTTAGGCCTCACACTC | 19100 a.u. |
| CACTTAGCACGTGATTTTGGTCCTCCAAAATCACGTGCTAAGTGACACTC (5mC at 38) | 24200 a.u. |
| CACTTAGCACATGATTTTGGTCCTCCAAAATCATGTGCTAAGTGACACTC | 16000 a.u. |
| GAGGCCCGGCACGTGCTGCCTCCTGGCAGCACGTGCCGGGCCTCACACTC (5mC at 37) | 23200 a.u. |
| CACTTACGACGTGATTTTGGTCCTCCAAAATCACGTCGTAAGTGACACTC (5mC at 7 37) | 5920 a.u. |
| GAGGCCTAGCACGTGATGCCTCCTGGCATCACGTGCTAGGCCTCACACTC | 30100 a.u. |
| CACTTGGCACGTGATTTTGGTCCTCCAAAATCACGTGCCAAGTGACACTC (5mC at 39) | 24800 a.u. |
| CACTTAGCACCTGATTTTGGTCCTCCAAAATCAGGTGCTAAGTGACACTC | 10900 a.u. |

Block 3 — read-out: enzyme activity; mode: inhibitor; concentration: 0.5 µM; baseline: control
Target: Misshapen-like kinase 1 (MINK1, Homo sapiens, UniProt Q8N4C8)
Sequence of UniProt Q8N4C8 (whole entry, looked up): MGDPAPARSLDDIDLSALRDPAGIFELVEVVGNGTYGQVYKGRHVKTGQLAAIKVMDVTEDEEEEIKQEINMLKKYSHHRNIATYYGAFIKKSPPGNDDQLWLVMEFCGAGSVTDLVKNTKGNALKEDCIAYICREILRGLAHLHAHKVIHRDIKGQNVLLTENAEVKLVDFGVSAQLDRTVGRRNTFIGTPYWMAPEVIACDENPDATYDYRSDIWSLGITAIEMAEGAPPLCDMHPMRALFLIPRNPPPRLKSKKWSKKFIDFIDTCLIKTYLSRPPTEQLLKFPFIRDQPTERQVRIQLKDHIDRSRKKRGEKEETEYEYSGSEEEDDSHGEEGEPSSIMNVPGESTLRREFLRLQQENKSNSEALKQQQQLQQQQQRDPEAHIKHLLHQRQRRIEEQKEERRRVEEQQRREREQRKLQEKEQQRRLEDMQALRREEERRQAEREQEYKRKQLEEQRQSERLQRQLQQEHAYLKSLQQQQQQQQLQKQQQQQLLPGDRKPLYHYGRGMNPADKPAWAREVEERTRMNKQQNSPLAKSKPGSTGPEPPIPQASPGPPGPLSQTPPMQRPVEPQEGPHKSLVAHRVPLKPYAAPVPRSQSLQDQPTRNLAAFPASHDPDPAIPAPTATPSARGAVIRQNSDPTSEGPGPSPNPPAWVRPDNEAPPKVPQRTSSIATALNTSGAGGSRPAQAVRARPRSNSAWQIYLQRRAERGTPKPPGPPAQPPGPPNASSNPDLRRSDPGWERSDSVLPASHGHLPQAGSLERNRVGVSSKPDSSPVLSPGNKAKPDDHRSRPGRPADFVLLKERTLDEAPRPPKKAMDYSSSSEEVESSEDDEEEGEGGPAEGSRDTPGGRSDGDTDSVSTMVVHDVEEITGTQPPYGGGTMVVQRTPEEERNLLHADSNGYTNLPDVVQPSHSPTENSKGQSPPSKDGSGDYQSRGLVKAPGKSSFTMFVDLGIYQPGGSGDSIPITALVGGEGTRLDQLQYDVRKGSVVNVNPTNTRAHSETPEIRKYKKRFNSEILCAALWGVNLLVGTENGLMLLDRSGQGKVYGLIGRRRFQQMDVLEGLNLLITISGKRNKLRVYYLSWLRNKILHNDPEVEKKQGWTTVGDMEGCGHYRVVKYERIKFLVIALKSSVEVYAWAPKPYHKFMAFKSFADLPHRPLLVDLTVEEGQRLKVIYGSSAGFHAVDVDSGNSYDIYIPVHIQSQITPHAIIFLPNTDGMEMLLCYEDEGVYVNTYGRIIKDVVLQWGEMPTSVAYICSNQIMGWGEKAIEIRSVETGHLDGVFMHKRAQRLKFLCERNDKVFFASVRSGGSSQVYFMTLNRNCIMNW
| Compound | remaining activity [%] |
| --- | --- |
| CO[C@H]1C[C@@H]2CC[C@@H](C)[C@@](O)(O2)C(=O)C(=O)N2CCCC[C@H]2C(=O)O[C@H]([C@H](C)C[C@@H]2CC[C@@H](O)[C@H](OC)C2)CC(=O)[C@H](C)/C=C(\C)[C@@H](O)[C@@H](OC)C(=O)[C@H](C)C[C@H](C)/C=C/C=C/C=C/1C | 100 |
| COc1cc2nccc(Oc3ccc(NC(=S)NC(=O)c4ccccc4C)cc3)c2cc1OC | 90.1 |
| Cc1cccc(-c2[nH]c(C(C)(C)C)nc2-c2ccc3c(c2)OCO3)n1 | 98.4 |
| COc1ccc(OC)c2c(=S)c3ccccc3[nH]c12 | 95.9 |
| OCC(O)CCON=C1C(c2c(O)[nH]c3ccccc23)=Nc2ccccc21 (centres unmarked) | 21 |
| COc1ccc(CNC(=O)Nc2ncc([N+](=O)[O-])s2)cc1 | 90.5 |
| CNC(=O)c1cc(Oc2ccc(NC(=O)Nc3ccc(Cl)c(C(F)(F)F)c3)cc2)ccn1 | 108 |
| COc1ccc(C(=O)Nc2sc3c(c2C(N)=O)CCCC3)cc1OC | 85 |
| Nc1ncnc2n[nH]c(Nc3ccc(F)cc3)c12 | 88.9 |

Other studies, line by line
| Compound | target | read-out | concentration | endpoint | value |
| --- | --- | --- | --- | --- | --- |
| O=C1NC(c2ccccn2)Sc2ccccc21 (centres unmarked) | 5-hydroxytryptamine receptor 5A (HTR5A, Homo sapiens, UniProt P47898) | ligand displacement | 10 µM | inhibition | 1.92% |

Excerpt of the above (block 2):
| Strand | median fluorescence |
| --- | --- |
| GAGGCCTAACACGTGCTGCCTCCTGGCAGCACGTGTTAGGCCTCACACTC | 19100 a.u. |
| CACTTAGCACGTGATTTTGGTCCTCCAAAATCACGTGCTAAGTGACACTC (5mC at 38) | 24200 a.u. |
